Literature values as cited in several papers.

| SMILES | tested on | test | system | setting | measurement | result |
| --- | --- | --- | --- | --- | --- | --- |
| Nc1cc(C(F)(F)F)c(-c2nc(N3CCOCC3)nc(N3CCOCC3)n2)cn1 | SW48 |  |  |  | GI50 | 0.175 µM |
| C=C[C@@H]1C[C@]1(NC(=O)[C@@H]1C[C@@H]2CN1C(=O)[C@H](C(C)(C)C)NC(=O)O[C@@H]1C[C@H]1CCCCCc1nc3ccc(OC)cc3nc1O2)C(=O)NS(=O)(=O)C1CC1 | CYP2C19 | inhibitor | human liver microsomes |  | IC50 | > 100 µM |
| FC(F)(F)C(F)(F)C(F)(F)C(F)(F)C(F)(F)C(F)(F)C(F)(F)C(F)(F)C(F)(F)C(F)(F)F | CYP2C19 |  |  | concentration not given | activity | inactive |
| CO[C@H]1/C=C/O[C@@]2(C)Oc3c(C)c(O)c4c(O)c(c(/C=N/N5CCN(C)CC5)c(O)c4c3C2=O)NC(=O)/C(C)=C\C=C\[C@H](C)[C@H](O)[C@@H](C)[C@@H](O)[C@@H](C)[C@H](OC(C)=O)[C@@H]1C | CYP2C19 | inducer |  |  | EC50 | 0.45 µM |
| OC(Cn1cncn1)(Cn1cncn1)c1ccc(F)cc1F | CYP2C19 | inhibitor |  |  | Ki | 2 µM |
| FC1(F)C(F)(F)C(F)(F)C2(F)C(F)(F)C(F)(F)C(F)(F)C(F)(F)C2(F)C1(F)F (stereo not shown) | CYP2C19 | inhibitor |  | Tox21 screening | IC50 | inactive |
| COc1ccc2nc([S@+]([O-])Cc3ncc(C)c(OC)c3C)[nH]c2c1 | CYP2C19 | mechanism-based inhibitor |  |  | unbound fraction in microsomes | 1 |
| O=S(=O)(O)C(F)(F)F | CYP2C19 | inhibitor |  | Tox21 screening | IC50 | inactive |
| O=C1Nc2ccc(Cl)cc2[C@@](C#CC2CC2)(C(F)(F)F)O1 | CYP2C19 | competitive inhibitor | human liver microsomes |  | IC50 | 16 µM |
| FC(F)(F)C(F)(F)C(F)(F)C(F)(F)C(F)(F)C(F)(F)C(F)(F)C(F)(F)Br | CYP2C19 | inhibitor |  | Tox21 screening | IC50 | inactive |
| N#CCNC(=O)c1ccc(-c2ccnc(Nc3ccc(N4CCOCC4=O)cc3)n2)cc1 | CYP2C19 | enzyme activity, inhibitor |  | concentration not given | inhibition | no inhibition |
| COc1ccc2nc([S@+]([O-])Cc3ncc(C)c(OC)c3C)[nH]c2c1 | CYP2C19 | 5-hydroxylation |  | in vitro | fraction of intrinsic clearance | ~98% |
| CC(=O)Nc1ccc(O)cc1 | CYP2C19 | substrate |  |  | Km | 2000 µM |

For quick reference, copied from above:
| SMILES | tested on | test | system | setting | measurement | result |
| --- | --- | --- | --- | --- | --- | --- |
| O=S(=O)(O)C(F)(F)F | CYP2C19 | inhibitor |  | Tox21 screening | IC50 | inactive |
